Results from different studies.
Each numbered part is a random draw from the data of one study; scales do not carry over between parts.

Sample 1
Target: RNA binding protein fox-1 homolog 2, RRM domain, GST-SBP tag (RBFOX2, Homo sapiens, UniProt O43251-10, residues 100-194)
Method: RNA Bind-n-Seq
Molecule type: RNA
Sample: in vitro
Tested at: 365 nM
Notes: natural RNA segment, single round, ends assumed
Relative to: no-protein control
Reading: higher = stronger binding
Shared flanks, not repeated: GGGAGUUCUACAGUCCGACGAUC … UGGAAUUCUCGGGUGCCAA
| Strand | RBNS enrichment (R) |
| --- | --- |
| UUUAAUUUCUAACCCUACCACAUCACAUCCAGUUUAUGAUUUUUCCAGAGGCUCAAAGCCAGAACCUCCUGCAUGUUGGACAAGCACUCUACCAACUGAGCUACAUCCCC | 5 |
| GCCUCAGCCACAAACCUAAAGGAGCUGCCUGUGUCUGACAGCACAGCCAUUCCAUCUCUUCCGUCCGUCUGUCUGUCUGGGUUGUUUUGUUUUGUUGUUGUUUUGAGACA | 0.836 |
| GAGGAACUUACUGUACAAUAUCUAAAAAGAAAGUCACUGGGGAAAACCUUUCCUCCUUCCUCCCUCACAGGUUGUUUGAGUGUGUAGGAAUCUGCACAAGAGAGGAGGUC | 0.49 |
| AGGCGGGGCCCUCGGGAGCCCAGGUGCAGAGCGAGGCCGUGUCCAGGAGCCGGCGUCCCUCAGUGCCCCGUGCACCCGCGGCCGCGGCCUCCCAGGCAGUGCUCAUGCGC | 0.431 |
| CAAAAGAAGUAGCUUUUUCCAGUGUCUUUUGUGUUACUGAUUUGGGAAAUGUUGAAAGAUUGGACAGGGAAGAAUAGCGCUUGGUGUCCUCAUGGUCAUUCUGUCUUACC | 0.843 |
| GAGACACCCACCAUGGGUCUUUGAUGCUAGAUAAGCCUAGAGGGAAGAUAAAGGGGCAGGAUCAAGGCUUUGUUUGAUCAUUGACCUACCCCCCCCCUCAGGUAGAUUCC | 0.717 |
| UGAGCACAAAAGCCACGUCCCAAGCCACCUGGCCCGAUUCCACAGAUGUAUGUGCGGCCAGUGACUUCCCCAGGAGUGUGGAGGGGGUGGUGAGGAGGAGCACCUGGGCU | 0.566 |
| AGAGGAACUCCAGGAGUGGAAGGUGAACCUCAGAGGAGACGCUGGCUCAGGCCUUGGCCCUCUAGGCAGGGAAGCUGGACUGACCAUAUCUGCUGGGCAUCUGAUCUGCC | 0.608 |

Sample 2
Target: Histone acetyltransferase KAT6A, winged helix 1, GST fusion (KAT6A, Homo sapiens, UniProt Q92794, residues 1-85)
Method: protein binding microarray
Molecule type: double-stranded DNA, one strand shown
Sample: in vitro
Tested at: not given
Notes: 8-mer, flanks averaged, mean of 2 arrays, mostly near background
Relative to: not given
Reading: higher = stronger binding
Construct (chain): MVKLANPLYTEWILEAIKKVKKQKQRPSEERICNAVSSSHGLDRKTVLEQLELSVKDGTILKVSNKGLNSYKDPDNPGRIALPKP
| Strand | E-score |
| --- | --- |
| ACGTACAT | -0.121 |
| CGAGTGAA | -0.0476 |
| AAATTCGC | -0.00891 |
| ATGGCTTA | -0.161 |
| GGTAGGCA | -0.102 |
| CACCGGGC | 0.241 |
| ATCACGAA | -0.114 |
| AAATTCCA | -0.233 |
| AGCCACAT | -0.271 |
| ATTGAAGC | -0.0327 |
| GAAATCAC | -0.0259 |
| AGTATGGA | -0.177 |
| GGTCGGCA | 0.163 |
| ACCTGGTA | -0.176 |
| CGAACAGA | -0.131 |
| GCTGATCC | 0.0478 |
| CCCCTCGG | 0.106 |
| AAGTACGC | 0.131 |
| GACCCCAA | -0.148 |
| CATGTACG | -0.0291 |
| CTGAGAAA | -0.106 |
| AGATAGAG | -0.221 |
| CGACGCAA | 0.303 |
| CTAGCTTC | -0.0542 |
| AAGTTTAA | -0.186 |

Sample 3
Target: Max-binding protein MNT, bHLH-zipper, MAX partner unstated (MNT, Homo sapiens, UniProt Q99583, residues 220-300)
Method: protein-binding microarray
Molecule type: double-stranded DNA, one strand shown
Sample: in vitro
Tested at: not given
Notes: k-mer, scored over probes, only values ≥0.25
Reading: higher = stronger binding
Target sequence (chain): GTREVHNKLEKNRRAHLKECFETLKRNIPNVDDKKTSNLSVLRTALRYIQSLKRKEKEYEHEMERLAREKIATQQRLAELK
| Strand | E-score |
| --- | --- |
| GGCGCCAC | 0.282 |
| CGGCGTGA | 0.32 |
| CCGCCCAC | 0.305 |
| ACATGGGG | 0.423 |
| ACACACAT | 0.32 |
| AACGTGGA | 0.418 |
| CGTCACGC | 0.358 |
| AGGGGTGG | 0.31 |
| ACGTGACA | 0.461 |
| CCACGTGG | 0.499 |
| ATTCCATG | 0.273 |
| CATATGGG | 0.27 |
| AGCGTGGA | 0.392 |
| CGTGTGGA | 0.296 |
| CACGCGGC | 0.471 |
| CGTGCTGC | 0.375 |
| AAGCGGGG | 0.256 |
| GACCACGC | 0.422 |
| ACACGTGT | 0.498 |
| ATGTGGGG | 0.307 |
| GCGCCCCA | 0.258 |
| CACCTGCG | 0.318 |

Sample 4
Target: Interferon regulatory factor 3, full length, phosphomimetic (IRF3, Homo sapiens, UniProt Q14653, residues 1-427, S386D/S396D/S398D/S402D/T404D/S405D)
Method: protein-binding microarray
Molecule type: double-stranded DNA, one strand shown
Sample: in vitro
Tested at: 2540 nM top
Notes: 60-bp whole probe
With: salmon DNA 0.4 mg/ml
Relative to: random background probes
Reading: higher = stronger binding
Shared flanks, not repeated: GCCTAGCAC … GTCTTGATTCGCTTGACGCTGCTG
Construct (chain): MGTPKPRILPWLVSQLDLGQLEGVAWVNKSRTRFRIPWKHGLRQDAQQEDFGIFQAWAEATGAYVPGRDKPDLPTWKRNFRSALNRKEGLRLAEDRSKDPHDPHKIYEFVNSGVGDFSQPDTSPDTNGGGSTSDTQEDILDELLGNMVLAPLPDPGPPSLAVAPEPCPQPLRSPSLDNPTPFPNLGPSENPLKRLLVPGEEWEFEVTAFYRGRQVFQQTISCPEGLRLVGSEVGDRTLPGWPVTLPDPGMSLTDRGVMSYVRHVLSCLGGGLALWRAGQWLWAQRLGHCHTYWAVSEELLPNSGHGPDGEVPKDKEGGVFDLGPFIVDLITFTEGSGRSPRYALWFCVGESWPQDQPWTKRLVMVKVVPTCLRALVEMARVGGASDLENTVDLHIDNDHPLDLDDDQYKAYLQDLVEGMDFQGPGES
| Strand | fitted relative affinity [z-score] |
| --- | --- |
| AGATACCTTTAACAGTGCCTGTGCTAG | 1.09 |
| TATTACCTCATCTTTCCCTGCGTGCTA | 1.22 |
| GACGGTATCGAGTATCGGGACGTGCTA | 0.98 |
| TACGGTATCGGTATCGGGACGTGCTAG | 4.48 |
| TTAGGTCTCGGTTTCCGTTAGTGCTAG | 4.11 |
| GTGAGTTTGACATCTTCATCAGTGCTA | -0.349 |
| CCGAGTCCCTATCTCCTCACGTGCTAG | 0.913 |
| TTAGCTTTCGGGACTGGATTAGTGCTA | 1.57 |
| CCGCTTTTTTTTTTTTTTTTGTGCTAG | 0.426 |
| GACGATTTCGCGTTTCGAGACGTGCTA | 1.71 |
| TTAGGTATCGGTCTCGGTTGGTGCTAG | 4.25 |
| TCAAAATTATCTTTAATACTGTGCTAG | -0.192 |
| TTAGGTATCCTTTTCCTCTAGTGCTAG | 7.99 |
| TTAGGGCTGGACTTTCGGTTAGTGCTA | 0.526 |
| GACGATTTCGGTACTGGAGACGTGCTA | 4.05 |
| TTACATTTCAGTTTCGATTAGTGCTAG | 5.16 |
| TTAGCACTGCTACTGCTTTAGTGCTAG | -0.746 |
| TTGCATCTGGGTATTTTTCTGTGCTAG | -0.212 |
| TTAGATTTCGCGTTTCGATTAGTGCTA | 1.91 |

Some of these lines once more (sample 3):
| Strand | E-score |
| --- | --- |
| CCGCCCAC | 0.305 |
| AAGCGGGG | 0.256 |
| CGGCGTGA | 0.32 |
| AGCGTGGA | 0.392 |
| CACCTGCG | 0.318 |
| ACACGTGT | 0.498 |
| ACACACAT | 0.32 |
| AACGTGGA | 0.418 |
| ATGTGGGG | 0.307 |
| CGTGTGGA | 0.296 |
| CGTGCTGC | 0.375 |
